Published values gathered from unrelated publications.
Each line is one published result; not all experiments were run side by side. “And” joins repeats or separate records; there may be more than shown. Numbers after ± are the reported error.
Ugcg: Ceramide glucosyltransferase (Ugcg, Mus musculus, UniProt O88693)
Chain of UniProt O88693 (whole entry, looked up): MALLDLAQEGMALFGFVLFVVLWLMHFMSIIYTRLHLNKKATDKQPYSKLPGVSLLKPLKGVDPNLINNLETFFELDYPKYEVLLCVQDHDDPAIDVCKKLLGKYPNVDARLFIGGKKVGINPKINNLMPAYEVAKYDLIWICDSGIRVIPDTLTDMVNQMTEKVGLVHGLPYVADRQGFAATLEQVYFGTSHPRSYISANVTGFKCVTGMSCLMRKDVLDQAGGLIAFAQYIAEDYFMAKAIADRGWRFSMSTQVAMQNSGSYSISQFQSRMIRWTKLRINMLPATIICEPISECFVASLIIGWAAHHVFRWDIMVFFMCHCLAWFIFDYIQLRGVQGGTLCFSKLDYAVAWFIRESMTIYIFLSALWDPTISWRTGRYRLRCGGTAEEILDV
Chain of UniProt P00761 (whole entry, looked up): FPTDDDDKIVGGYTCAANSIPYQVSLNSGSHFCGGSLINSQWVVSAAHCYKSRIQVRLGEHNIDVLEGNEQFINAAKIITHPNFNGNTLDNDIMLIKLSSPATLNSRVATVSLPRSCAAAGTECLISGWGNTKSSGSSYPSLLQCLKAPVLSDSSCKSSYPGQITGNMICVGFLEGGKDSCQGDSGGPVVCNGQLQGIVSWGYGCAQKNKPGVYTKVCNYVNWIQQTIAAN

| SMILES | tested on | test | test system | conditions | how to read | quantity | result |
| --- | --- | --- | --- | --- | --- | --- | --- |
| CC(=O)N[C@H](C(=O)N[C@H](C(=O)N[C@@H](CCCNC(=N)N)C(=O)N[C@@H](CC(N)=O)C(=O)N[C@@H](CC(=O)O)C(=O)N[C@H](C(=O)N1CCC[C@@H]1C(=O)N1CCC[C@H]1C(=O)N[C@@H](CC(=O)O)C(=O)N[C@@H](CO)C(=O)N[C@@H](CC(C)C)C(=O)N[C@@H](CC(C)C)C(=O)N[C@H](C(=O)N[C@@H](Cc1ccccc1)C(N)=O)C(C)C)C(C)C)[C@@H](C)O)C(C)C | HEK-293T | subcellular fractionation LC-MS | cytoplasmic fraction | 20 µM, 2 h |  | peptide amount per protein | not detected |
| O=C1NC2(CC2)COc2ncc(F)cc2[C@H]2COCCN2c2ccn3ncc1c3n2 | Salmonella typhimurium | Ames test | TA98 | 50 µg/plate, 48 h, added: rat liver S9 |  | revertant colonies | 22 ± 5 revertants/plate |
| CCCCCCCCCCCCCCCC(=O)N[C@@H](CCC(=O)NCCCC[C@H](NC(=O)[C@H](CCC(N)=O)NC(=O)[C@H](Cc1c[nH]cn1)NC(=O)[C@@H](NC(=O)[C@H](CCCCN)NC(=O)[C@H](CC(=O)O)NC(=O)[C@H](CCSC)NC(=O)[C@H](C)NC(=O)[C@@H](NC(=O)[C@H](CO)NC(=O)[C@H](Cc1ccc(O)cc1)NC(=O)[C@H](CC(=O)O)NC(=O)[C@H](CO)NC(=O)[C@@H](NC(=O)[C@H](Cc1ccccc1)NC(=O)[C@@H](NC(=O)CNC(=O)[C@H](CCC(=O)O)NC(=O)[C@H](C)NC(=O)[C@H](Cc1ccc(O)cc1)NCC(F)(F)F)[C@@H](C)O)[C@@H](C)CC)[C@@H](C)CC)[C@@H](C)CC)C(=O)N[C@@H](CC(=O)O)C(=O)N[C@@H](Cc1ccccc1)C(=O)N[C@H](C(=O)N[C@@H](CC(N)=O)C(=O)N[C@@H](Cc1c[nH]c2ccccc12)C(=O)N[C@@H](CC(C)C)C(=O)N[C@@H](CC(C)C)C(=O)N[C@@H](C)C(=O)N[C@@H](CCC(N)=O)C(=O)N[C@@H](CCCCN)C(=O)NCC(=O)N[C@@H](CCCCN)C(=O)N[C@@H](CCCCN)C(=O)N[C@@H](CC(N)=O)C(=O)N[C@@H](CC(=O)O)C(=O)N[C@@H](Cc1c[nH]c2ccccc12)C(=O)N[C@@H](CCCCN)C(=O)N[C@@H](Cc1c[nH]cn1)C(=O)N[C@@H](CC(N)=O)C(=O)N[C@H](C(=O)N[C@H](C(=O)N[C@@H](CCC(N)=O)C(=O)O)[C@@H](C)O)[C@@H](C)CC)C(C)C)C(=O)O | Trypsin (Sus scrofa, UniProt P00761) | LC-MS, item: fragment 1-33 |  | 18 h, pH 8.0, 37 °C, added: trypsin 2.5 mg/mL |  | fragment formed | 10% |
| CNC(=O)c1ccc(C2CCCCC2)cc1 |  | liver microsome stability | rat liver microsomes | 1 µM |  | hepatic clearance | 52 mL/min/kg |
| Nc1nc2cc(C(=O)c3ccc(F)cc3)ccc2[nH]1 | Salmonella typhimurium | Ames preincubation test | TA100 | 19.5 µg per plate, 3 days, without S9 |  | revertants | 140 revertants per plate |
| N#C[C@@H]1CC(F)(F)CN1C(=O)CNC(=O)c1ccnc2c(NC(=O)CCOCCOCCOCCOCCOCCOCCNC(=O)[C@H](CCCCNC(=O)CN3CCN(CC(=O)[O-])CCN(CC(=O)[O-])CCN(CC(=O)[O-])CC3)NC(=O)CCCc3ccc(I)cc3)cccc12.[177Lu+3] | U-87 MG tumour model |  | host not given, bone | 1 h, tumour-bearing |  | tracer uptake | 3.74 %ID/g |
| CC(=O)Nc1ccc([C@H]2[C@@H](F)[C@@H](F)C[C@@H](F)[C@H]2F)cc1 |  | hepatocyte stability | cryopreserved rat hepatocytes | 1 µM |  | hepatic clearance | 11 mL/min/kg |
| CCCCCCCCN1C[C@H](O)[C@@H](O)[C@H](O)[C@H]1CO | Ugcg | enzyme activity, inhibitor, fluorescence |  |  |  | IC50 | 4 µM |
| CC(C)CC(=O)Nc1ccc([C@H]2[C@@H](F)[C@@H](F)C[C@@H](F)[C@H]2F)cc1 |  | liver microsome stability | dog liver microsomes | 1 µM |  | hepatic clearance | 8.1 mL/min/kg |
| CNC(=O)C1CCCN(C(=O)C2CC3CCC2N3C(=O)[C@@H]2C[C@@H](O)CN2C(=O)NCc2cccc(Cl)c2F)C1 (mixture of isomers) | CYP3A4 (human) | inhibitor, time-dependent inhibition |  | 16.7 µM, preincubated without NADPH, added: testosterone substrate |  | 6β-hydroxytestosterone formation | 171 ng/mL |
| OC[C@H]1[C@@H](O)[C@H](O)[C@@H](O)CN1CCCC/C=C\C12CC3CC(CC(C3)C1)C2 | Ugcg | enzyme activity, inhibitor, fluorescence |  |  |  | IC50 | 14.3 µM |
| O=C(NCCO)c1ccc([C@H]2[C@@H](F)[C@@H](F)C[C@@H](F)[C@H]2F)cc1 |  | liver microsome stability | dog liver microsomes | 1 µM |  | hepatic clearance | 7.3 mL/min/kg |
| O=C1C2CC3CC1CC(C(=O)N1CCN(c4ccc([N+](=O)[O-])c5ncccc45)CC1)(C3)C2 | Salmonella typhimurium | Ames test | TA100 | 0.78 µg/well, without S9 | reference: vehicle | revertant fold increase | 0.9 |
| CCN(CC)CC#CCNc1ccnc2cc(Cl)ccc12 | Salmonella typhimurium | mini-Ames test | TA97a | 125.0 µg/well, with rat liver S9 |  | revertants | 23 revertants/well and 4 revertants/well |
| O=C(NC1CCOCC1)c1ccc(C2CCCCC2)cc1 |  | liver microsome stability | dog liver microsomes | 1 µM |  | hepatic clearance | 29 mL/min/kg |
| C=C(NC(=O)c1csc(-c2nc3c(cc2O)-c2nc(cs2)C(=O)NC(C(C)O)C(=O)NC(=C(C)OC)c2nc(cs2)C(=O)NC2c4nc(cs4)C(=O)NC(COC(=O)c4c5c6c(cccc6n4O)COC(=O)C(OC4CC(C)(O)C(N(C)C)C(C)O4)C2OC5)c2nc-3cs2)n1)C(N)=O (stereo not drawn) |  |  | Sprague-Dawley rat, female, plasma | intravenous infusion, 18 mg/kg single dose |  | volume of distribution | 27.8 L/kg |
| N#C[C@@H]1CC(F)(F)CN1C(=O)CNC(=O)c1ccnc2c(NC(=O)[C@@H](N)CCCCNC(=O)CCOCCOCCOCCOCCOCCOCCNC(=O)CN3CCN(CC(=O)[O-])CCN(CC(=O)[O-])CCN(CC(=O)[O-])CC3)cccc12.[177Lu+3] | U-87 MG tumour model |  | host not given, heart | 1 h, tumour-bearing |  | tracer uptake | 0.25 %ID/g |
| Cc1cc(=O)c2c(O)c3c(O[C@@H]4O[C@H](CO)[C@@H](O)[C@H](O)[C@H]4O)cc(O)cc3cc2o1 | HepaRG co-cultured with HK-2 | MTT |  | 266.67 µM, 24 h | reference: untreated control | cell viability | 87.2 ± 9.67% |

Excerpt of the above:
| SMILES | tested on | test | test system | conditions | how to read | quantity | result |
| --- | --- | --- | --- | --- | --- | --- | --- |
| CCN(CC)CC#CCNc1ccnc2cc(Cl)ccc12 | Salmonella typhimurium | mini-Ames test | TA97a | 125.0 µg/well, with rat liver S9 |  | revertants | 23 revertants/well and 4 revertants/well |
